# Results pooled from the literature.
# Compare with care: the assays were run in different laboratories. ± marks the error that the study gave.
SMILES,test,system,setting,how to read,quantity,result
CC[C@@H](C)[C@@H](NC(=O)[C@@H](CC(C)C)NC(=O)[C@@H](CCCCN)NC(=O)[C@@H](CC(C)C)NC(=O)[C@@H](CC(C)C)NC(=O)[C@H](NC(=O)[C@@H](Cc1c[nH]cn1)NC(=O)[C@@H](CC(C)C)NC(=O)[C@@H](CCCCN)NC(=O)[C@H](NC(=O)[C@@H](CCCCN)NC(=O)[C@@H](CCCCN)NC(=O)[C@@H](CC(C)C)NC(=O)[C@@H](CO)NC(=O)[C@@H](CCCCN)NC(=O)[C@@H](Cc1ccccc1)NC(=O)[C@H](NC(=O)[C@@H](CCCCN)NC(=O)[C@@H](CC(C)C)NC(=O)[C@@H](Cc1ccccc1)NC(=O)[C@@H](CO)NC(=O)[C@@H](CCCCN)NC(=O)[C@@H](Cc1c[nH]c2ccccc12)NC(=O)[C@@H](CCCCN)NC(C)=O)[C@H](C)O)[C@H](C)O)[C@H](C)O)C(=O)N[C@H](CO)C(=O)N[C@H](CO)C(N)=O,circular dichroism,aqueous phosphate buffer,"pH 7.0, 5 °C, at 222 nm",,mean residue ellipticity,3700 deg cm²/dmol
CC[C@@H](C)[C@@H](NC(=O)[C@@H](C)NC(=O)[C@@H](CCCCN)NC(=O)[C@@H](CC(C)C)NC(=O)[C@@H](CC(C)C)NC(=O)[C@H](NC(=O)[C@@H](CCCCN)NC(=O)[C@@H](CC(C)C)NC(=O)[C@@H](CCCCN)NC(=O)[C@@H](CCCCN)NC(=O)[C@@H](CCCCN)NC(=O)[C@@H](CCCCN)NC(=O)[C@@H](C)NC(=O)[C@@H](CCCCN)NC(=O)[C@@H](CO)NC(=O)[C@@H](Cc1ccccc1)NC(=O)[C@H](NC(=O)[C@@H](CCCCN)NC(=O)[C@@H](CC(C)C)NC(=O)[C@@H](Cc1ccccc1)NC(=O)[C@@H](CO)NC(=O)[C@@H](CCCCN)NC(=O)[C@@H](Cc1c[nH]c2ccccc12)NC(=O)[C@@H](CCCCN)NC(C)=O)[C@H](C)O)[C@H](C)O)C(=O)N[C@H](CO)C(=O)N[C@H](CCCCN)C(N)=O,circular dichroism,benign aqueous buffer,"pH 7.0, 5 °C, at 222 nm",negative is more helical,mean residue molar ellipticity,1750 deg cm2/dmol
C=CC(=O)Nc1cc(Nc2nccc(-c3c[nH]c4ccccc34)n2)c(OC)cc1N(C)CCN(C)C,long-term stability,human dried blood spot QC samples,"30 ng/mL, 30 d, -80 °C, MQC level",,mean measured concentration,28.9 ng/mL
CC(=O)N[C@H](CCCCN)C(=O)N[C@H](CC(C)C)C(=O)N[C@H](CCCCN)C(=O)N[C@H](CO)C(=O)N[C@H](CC(C)C)C(=O)N[C@H](CC(C)C)C(=O)N[C@H](CCCCN)C(=O)N[C@@H](C(=O)N[C@H](CC(C)C)C(=O)N[C@H](CO)C(=O)N[C@H](CCCCN)C(=O)N[C@H](C)C(=O)N[C@H](CCCCN)C(=O)N[C@H](CCCCN)C(=O)N[C@H](CCCCN)C(=O)N[C@H](CC(C)C)C(=O)N[C@H](CC(C)C)C(=O)N[C@H](CCCCN)C(=O)N[C@@H](C(=O)N[C@H](C)C(=O)N[C@H](CC(C)C)C(=O)N[C@H](CCCCN)C(=O)N[C@H](C)C(=O)N[C@H](CC(C)C)C(=O)N[C@H](CO)C(=O)N[C@H](CCCCN)C(N)=O)[C@H](C)O)[C@H](C)O,circular dichroism,benign aqueous buffer,"pH 7.0, 5 °C, at 222 nm",negative is more helical,mean residue molar ellipticity,4350 deg cm2/dmol
C=CC(=O)Nc1cc(Nc2nccc(-c3cn(C)c4ccccc34)n2)c(OC)cc1N(C)CCNC,long-term stability,human dried blood spot QC samples,"30 ng/mL, 30 d, -80 °C, MQC level",,mean measured concentration,29.2 ng/mL
CCCC[C@H](NC(=O)[C@H](CC(C)C)N(C)C(=O)CNC(=O)[C@@H](NC(=O)[C@H](Cc1ccccc1)NC(=O)[C@H](CCCCN)NC(=O)[C@@H](N)CC(=O)O)C(C)C)C(N)=O,,anaesthetised Sinclair minipigs,"IN, 100 µg/kg",relative to: baseline,mean arterial pressure change,-1.5 ± 3.99%
NC12CNCCNCC(NCc3ccc(CNC(=O)CCCC(=O)NCc4ccc(-c5nncnn5)cc4)cc3)(CNCCNC1)CNCCNC2.[64Cu+2],OLINDA dosimetry,osteogenic cells,"pretargeting, 48-h interval",,mean absorbed dose,0.0805 rad/mCi
CCCCCCCC(=O)OC[C@H](NC(=O)[C@H](CO)NC(=O)CN)C(=O)N[C@@H](Cc1ccccc1)C(=O)N[C@@H](CC(C)C)C(=O)N[C@@H](CO)C(=O)N1CCC[C@H]1C(=O)N[C@@H](CCC(=O)O)C(=O)N[C@@H](Cc1cnc[nH]1)C(=O)N[C@@H](CCC(N)=O)C(=O)N[C@@H](CCCNC(=N)N)C(=O)N[C@H](C(=O)N[C@@H](CCC(N)=O)C(=O)N[C@@H](CCC(N)=O)C(=O)N[C@@H](CCCNC(=N)N)C(=O)N[C@@H](CCCCN)C(=O)N[C@@H](CCC(=O)O)C(=O)N[C@@H](CO)C(=O)N[C@@H](CCCCN)C(=O)N[C@@H](CCCCN)C(=O)N1CCC[C@H]1C(=O)N1CCC[C@H]1C(=O)N[C@@H](C)C(=O)N[C@@H](CCCCN)C(=O)N[C@@H](CC(C)C)C(=O)N[C@@H](CCC(N)=O)C(=O)N1CCC[C@H]1C(=O)N[C@@H](CCCNC(=N)N)C(=O)O)C(C)C,,chronic HFrEF patients,"intravenous infusion, 0.1 µg/kg/min, end of 120 min infusion",,mean arterial pressure,70.9 ± 13.1 mmHg

# For quick reference, copied from above:
SMILES,test,system,setting,how to read,quantity,result
CC(=O)N[C@H](CCCCN)C(=O)N[C@H](CC(C)C)C(=O)N[C@H](CCCCN)C(=O)N[C@H](CO)C(=O)N[C@H](CC(C)C)C(=O)N[C@H](CC(C)C)C(=O)N[C@H](CCCCN)C(=O)N[C@@H](C(=O)N[C@H](CC(C)C)C(=O)N[C@H](CO)C(=O)N[C@H](CCCCN)C(=O)N[C@H](C)C(=O)N[C@H](CCCCN)C(=O)N[C@H](CCCCN)C(=O)N[C@H](CCCCN)C(=O)N[C@H](CC(C)C)C(=O)N[C@H](CC(C)C)C(=O)N[C@H](CCCCN)C(=O)N[C@@H](C(=O)N[C@H](C)C(=O)N[C@H](CC(C)C)C(=O)N[C@H](CCCCN)C(=O)N[C@H](C)C(=O)N[C@H](CC(C)C)C(=O)N[C@H](CO)C(=O)N[C@H](CCCCN)C(N)=O)[C@H](C)O)[C@H](C)O,circular dichroism,benign aqueous buffer,"pH 7.0, 5 °C, at 222 nm",negative is more helical,mean residue molar ellipticity,4350 deg cm2/dmol
